Earlier results as cited in several papers.
Each numbered part shows a few of the values that one paper quotes. pIC50: −log10 of the molar value.

Set 1
Organism: Toxoplasma gondii
Effect on: parasite growth
Concentration: concentration not given
Setting: published screen
Cl.Nc1nc2ccc(OC(F)(F)F)cc2s1: activity class “inactive”.
NS(=O)(=O)Cc1noc2ccccc12 — result for activity class: “inactive”.
For CC1(C)C[C@@H]1C(=O)N/C(=C\CCCCSC[C@H](N)C(=O)O)C(=O)[O-].[Na+], activity class read “inactive”.

Single results of other studies
With O=C(NCc1ncc(C(F)(F)F)cc1Cl)c1ccc2c(c1)C1(CCS(=O)(=O)CC1)[C@@H](C1CC1)N2S(=O)(=O)c1ccc(F)cc1 the pIC50 was 5.46 (cannabinoid receptor CB1; radioligand binding).
For CCN(CC)CC(=O)Nc1c(C)cccc1C, activity outcome read “inactive” (HepG2; mitochondrial membrane potential; concentration not given, Tox21).
For Cc1ncc(-c2cc(Cl)ccc2F)cc1-n1c(=O)n(CC(N)=O)c2ccccc21, the pIC50 was less than 5.00 (ACVR1B; cell-based).
For CC[C@@H]1C(=O)N(C)c2cnc(Nc3ccc(C(=O)N[C@H]4CC[C@H](N5CCN(CC6CC6)CC5)CC4)cc3OC)nc2N1C(C)C, the pIC50 was 9.06 (human PLK1; kinase activity, inhibitor).
Cn1c(C2(NC(=O)c3ccc(NCC4CCCCC4)nc3)CCC2)nc2ccc(/C=C/C(=O)O)cc21 gave a pIC50 of less than 5.30 (HCV NS5B; biochemical).
Under activity outcome, Cc1cc(Nc2ncc(Cl)c(Nc3ccccc3S(=O)(=O)C(C)C)n2)c(OC(C)C)cc1C1CCNCC1 is recorded as “inactive” (HepG2; mitochondrial membrane potential; concentration not given, Tox21).
For O=C(O)[C@@H]1[C@@H](Cn2nnc3ccccc3c2=O)CC[C@H]1C(=O)c1ccc(OCCC2CCOCC2)cc1, the pIC50 was 7.10 (MMP12; biochemical activity).

A few entries again (set 1):
For CC1(C)C[C@@H]1C(=O)N/C(=C\CCCCSC[C@H](N)C(=O)O)C(=O)[O-].[Na+], activity class read “inactive”.
